Published values collected from several papers.
Every numbered part comes from another study and shows a few of its results, in no order.
UniProt P32298, sequence (whole entry, looked up): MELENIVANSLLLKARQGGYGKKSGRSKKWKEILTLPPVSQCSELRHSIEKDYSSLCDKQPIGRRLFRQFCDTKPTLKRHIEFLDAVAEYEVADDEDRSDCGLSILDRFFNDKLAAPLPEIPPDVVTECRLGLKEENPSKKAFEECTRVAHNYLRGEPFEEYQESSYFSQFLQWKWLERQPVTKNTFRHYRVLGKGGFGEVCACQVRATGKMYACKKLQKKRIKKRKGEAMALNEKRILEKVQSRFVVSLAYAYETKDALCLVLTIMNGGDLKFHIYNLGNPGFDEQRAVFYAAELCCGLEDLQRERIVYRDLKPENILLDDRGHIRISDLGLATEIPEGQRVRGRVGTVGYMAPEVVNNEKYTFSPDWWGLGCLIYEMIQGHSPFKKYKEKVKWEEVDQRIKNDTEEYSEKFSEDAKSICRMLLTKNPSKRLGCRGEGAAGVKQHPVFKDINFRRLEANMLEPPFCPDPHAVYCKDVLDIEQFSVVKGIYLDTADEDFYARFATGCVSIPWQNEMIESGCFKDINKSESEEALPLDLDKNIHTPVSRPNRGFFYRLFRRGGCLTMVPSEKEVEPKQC
UniProt Q8N568, sequence (whole entry, looked up): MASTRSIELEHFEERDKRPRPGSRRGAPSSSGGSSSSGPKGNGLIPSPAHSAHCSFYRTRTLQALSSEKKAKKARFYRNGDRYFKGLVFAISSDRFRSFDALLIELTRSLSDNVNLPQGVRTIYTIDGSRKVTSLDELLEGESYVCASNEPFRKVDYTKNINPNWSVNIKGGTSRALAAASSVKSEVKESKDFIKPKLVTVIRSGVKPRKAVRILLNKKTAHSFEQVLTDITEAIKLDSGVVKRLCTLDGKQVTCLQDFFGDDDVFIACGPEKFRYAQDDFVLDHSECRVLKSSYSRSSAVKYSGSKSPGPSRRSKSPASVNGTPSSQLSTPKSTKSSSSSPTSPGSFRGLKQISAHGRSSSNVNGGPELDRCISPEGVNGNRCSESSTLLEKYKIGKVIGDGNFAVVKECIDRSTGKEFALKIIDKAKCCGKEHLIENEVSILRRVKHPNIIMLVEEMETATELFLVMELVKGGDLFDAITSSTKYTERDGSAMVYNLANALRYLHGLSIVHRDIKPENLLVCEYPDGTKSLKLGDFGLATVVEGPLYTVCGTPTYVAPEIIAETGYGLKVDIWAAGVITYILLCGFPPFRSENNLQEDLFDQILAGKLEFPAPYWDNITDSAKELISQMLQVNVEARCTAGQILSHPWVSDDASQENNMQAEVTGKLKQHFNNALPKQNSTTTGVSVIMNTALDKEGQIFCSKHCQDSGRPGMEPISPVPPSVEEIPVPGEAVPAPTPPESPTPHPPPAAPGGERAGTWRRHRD
UniProt Q86UE8, sequence (whole entry, looked up): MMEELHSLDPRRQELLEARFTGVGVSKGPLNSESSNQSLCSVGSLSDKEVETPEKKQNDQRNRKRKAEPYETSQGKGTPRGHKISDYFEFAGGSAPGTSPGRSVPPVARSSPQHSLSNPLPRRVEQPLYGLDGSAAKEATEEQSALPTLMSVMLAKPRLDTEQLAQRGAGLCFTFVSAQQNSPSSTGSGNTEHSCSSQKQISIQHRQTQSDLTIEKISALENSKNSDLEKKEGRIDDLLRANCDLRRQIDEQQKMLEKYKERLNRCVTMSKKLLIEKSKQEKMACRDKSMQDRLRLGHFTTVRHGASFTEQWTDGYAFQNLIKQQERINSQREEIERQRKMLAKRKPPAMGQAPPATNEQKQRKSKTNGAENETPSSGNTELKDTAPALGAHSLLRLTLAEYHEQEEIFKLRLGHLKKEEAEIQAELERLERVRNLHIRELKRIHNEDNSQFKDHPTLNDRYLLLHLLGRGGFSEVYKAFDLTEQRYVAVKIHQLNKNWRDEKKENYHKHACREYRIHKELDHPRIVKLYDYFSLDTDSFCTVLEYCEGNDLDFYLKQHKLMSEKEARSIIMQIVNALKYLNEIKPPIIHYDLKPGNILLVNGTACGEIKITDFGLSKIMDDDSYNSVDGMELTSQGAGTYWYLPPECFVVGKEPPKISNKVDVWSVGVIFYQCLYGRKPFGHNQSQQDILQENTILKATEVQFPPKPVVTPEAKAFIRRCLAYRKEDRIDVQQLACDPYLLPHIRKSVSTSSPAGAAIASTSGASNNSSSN
UniProt O75676, sequence (whole entry, looked up): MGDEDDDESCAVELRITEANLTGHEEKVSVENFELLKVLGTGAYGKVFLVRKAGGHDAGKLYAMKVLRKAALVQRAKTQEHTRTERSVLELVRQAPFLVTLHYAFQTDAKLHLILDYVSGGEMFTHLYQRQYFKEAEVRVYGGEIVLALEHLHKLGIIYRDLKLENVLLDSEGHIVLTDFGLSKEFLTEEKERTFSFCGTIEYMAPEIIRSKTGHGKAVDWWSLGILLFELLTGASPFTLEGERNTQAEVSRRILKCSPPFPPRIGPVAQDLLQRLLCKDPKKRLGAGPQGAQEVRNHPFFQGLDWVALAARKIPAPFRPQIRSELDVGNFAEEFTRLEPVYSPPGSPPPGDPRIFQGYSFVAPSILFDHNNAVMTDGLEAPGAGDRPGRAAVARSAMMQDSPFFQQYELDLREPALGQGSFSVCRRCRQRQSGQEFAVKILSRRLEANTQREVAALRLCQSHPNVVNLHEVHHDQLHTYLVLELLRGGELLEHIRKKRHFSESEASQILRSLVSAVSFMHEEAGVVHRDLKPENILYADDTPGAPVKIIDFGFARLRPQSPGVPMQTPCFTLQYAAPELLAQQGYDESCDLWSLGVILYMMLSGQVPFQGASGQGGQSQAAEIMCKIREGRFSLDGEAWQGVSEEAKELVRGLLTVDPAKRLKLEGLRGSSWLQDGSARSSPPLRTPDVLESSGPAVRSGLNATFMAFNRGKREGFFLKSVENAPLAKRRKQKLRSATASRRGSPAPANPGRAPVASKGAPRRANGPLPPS
UniProt Q9Y5N1, sequence (whole entry, looked up): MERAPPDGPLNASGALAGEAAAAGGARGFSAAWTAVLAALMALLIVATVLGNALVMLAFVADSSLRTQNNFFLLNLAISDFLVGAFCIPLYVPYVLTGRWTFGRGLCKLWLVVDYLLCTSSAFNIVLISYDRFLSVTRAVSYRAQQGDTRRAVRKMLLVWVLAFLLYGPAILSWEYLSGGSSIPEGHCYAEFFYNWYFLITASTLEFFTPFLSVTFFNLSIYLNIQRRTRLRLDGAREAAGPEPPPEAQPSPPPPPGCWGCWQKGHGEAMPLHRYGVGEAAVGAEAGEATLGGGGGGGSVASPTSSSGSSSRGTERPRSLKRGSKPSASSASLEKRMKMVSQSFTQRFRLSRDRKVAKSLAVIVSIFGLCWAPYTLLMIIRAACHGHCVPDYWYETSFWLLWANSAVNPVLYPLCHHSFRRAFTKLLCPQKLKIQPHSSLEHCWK
UniProt P21728, sequence (whole entry, looked up): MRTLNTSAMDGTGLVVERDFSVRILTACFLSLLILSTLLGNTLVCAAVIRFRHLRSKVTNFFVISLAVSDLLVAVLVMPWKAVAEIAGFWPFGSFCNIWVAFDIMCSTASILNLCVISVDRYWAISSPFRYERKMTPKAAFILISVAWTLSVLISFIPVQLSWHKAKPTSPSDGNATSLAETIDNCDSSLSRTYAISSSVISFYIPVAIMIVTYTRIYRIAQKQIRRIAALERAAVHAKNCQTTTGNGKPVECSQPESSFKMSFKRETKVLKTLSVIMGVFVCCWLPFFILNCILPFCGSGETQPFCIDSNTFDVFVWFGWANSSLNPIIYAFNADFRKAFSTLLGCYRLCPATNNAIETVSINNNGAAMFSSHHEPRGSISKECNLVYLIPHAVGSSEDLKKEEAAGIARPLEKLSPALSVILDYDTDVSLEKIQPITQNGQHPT
UniProt P25021, sequence (whole entry, looked up): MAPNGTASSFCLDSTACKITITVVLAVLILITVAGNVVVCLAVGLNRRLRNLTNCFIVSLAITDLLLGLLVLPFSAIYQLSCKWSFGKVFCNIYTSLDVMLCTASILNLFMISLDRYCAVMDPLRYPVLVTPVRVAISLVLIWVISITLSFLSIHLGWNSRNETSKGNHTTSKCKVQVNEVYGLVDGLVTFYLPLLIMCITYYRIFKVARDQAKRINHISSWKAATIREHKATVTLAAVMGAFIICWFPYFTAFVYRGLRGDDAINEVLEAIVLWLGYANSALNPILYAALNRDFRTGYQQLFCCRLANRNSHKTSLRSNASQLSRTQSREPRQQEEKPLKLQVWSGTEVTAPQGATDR
UniProt O75914, sequence (whole entry, looked up): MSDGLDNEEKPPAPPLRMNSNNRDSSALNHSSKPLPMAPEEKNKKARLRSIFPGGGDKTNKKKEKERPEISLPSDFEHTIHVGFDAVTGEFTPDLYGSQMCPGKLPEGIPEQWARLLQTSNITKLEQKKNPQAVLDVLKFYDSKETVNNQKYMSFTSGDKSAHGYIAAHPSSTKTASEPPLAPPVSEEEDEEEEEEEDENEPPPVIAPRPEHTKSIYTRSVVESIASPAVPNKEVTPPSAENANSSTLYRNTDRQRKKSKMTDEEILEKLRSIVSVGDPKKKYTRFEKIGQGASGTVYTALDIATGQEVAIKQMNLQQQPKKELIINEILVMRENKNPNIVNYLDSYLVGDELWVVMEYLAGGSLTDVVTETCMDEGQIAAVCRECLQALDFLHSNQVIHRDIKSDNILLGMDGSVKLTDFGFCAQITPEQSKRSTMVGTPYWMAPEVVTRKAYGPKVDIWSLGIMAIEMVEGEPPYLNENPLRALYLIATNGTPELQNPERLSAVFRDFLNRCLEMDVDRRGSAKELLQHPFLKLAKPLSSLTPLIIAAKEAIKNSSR

Series 1 — SMILES: FC(F)(F)c1ccc2c(c1)nc(-c1cccnc1)n2C1CC1; observed: cell-free assay; concentration: 10 µM
| target | inhibition |
| --- | --- |
| Alpha-1D adrenergic receptor (ADRA1D, Homo sapiens, UniProt P25100) | -22.1% |
| Alpha-2C adrenergic receptor (ADRA2C, Homo sapiens, UniProt P18825) | 13.3% |
| D(1A) dopamine receptor (DRD1, Homo sapiens, UniProt P21728) | -3.97% |
| Histamine H2 receptor (HRH2, Homo sapiens, UniProt P25021) | 6.72% |
| Histamine H3 receptor (HRH3, Homo sapiens, UniProt Q9Y5N1) | -17.6% |
| Alpha-2B adrenergic receptor (ADRA2B, Homo sapiens, UniProt P18089) | 43.3% |
| Muscarinic acetylcholine receptor M5 (CHRM5, Homo sapiens, UniProt P08912) | -6.15% |

Series 2 — species: idiopathic pulmonary fibrosis patients; matrix: plasma
Compound: CC(C)n1cnc(-c2ccc(F)cc2)c1-c1ncc(C(=O)Nc2ccc(N3CCN(C)CC3)cc2)[nH]1
| route | dose | time | setting | AUC(0-t) |
| --- | --- | --- | --- | --- |
| – | 30 mg twice daily | week 12 | median | 1090 ng·h/mL |
| oral | 60 mg once daily | week 0 | median | 1260 ng·h/mL |
| oral | 30 mg once daily | week 12 | arithmetic mean | 788 ng·h/mL |
| – | 30 mg twice daily | week 0 | arithmetic mean | 315 ng·h/mL |

Series 3 — organism: Plasmodium berghei; mode: inhibitor; cells: Huh-7; strain: GFP-expressing, liver stage; concentration: 10 µM; time: 24 h; relative to: untreated control
| SMILES | infection rate [%] |
| --- | --- |
| NS(=O)(=O)c1cc2c(cc1Cl)NC(C(Cl)Cl)NS2(=O)=O (centres unmarked) | 88.2 |
| CCOC(=O)C1=C[C@@H](OC(CC)CC)[C@H](NC(C)=O)[C@@H](N)C1 | 101 |
| CO[C@H]1C[C@H](O[C@H]2[C@H](C)[C@@H](O[C@@H]3O[C@H](C)C[C@H](N(C)C)[C@H]3O)[C@@H](C)C[C@@]3(CO3)C(=O)[C@H](C)[C@@H](O)[C@@H](C)[C@@H](C)OC(=O)[C@@H]2C)O[C@@H](C)[C@@H]1O | 115 |
| OC(CCN1CCCC1)(c1ccccc1)C1CCCCC1 (centres unmarked) | 100 |
| NCCNCCNCCN | 96.1 |
| CCC1(c2ccccc2)C(=O)NCNC1=O | 34.2 |
| O=C(O)CCc1nc(-c2ccccc2)c(-c2ccccc2)o1 | 101 |

Series 4 — Structure (SMILES): O=c1cc(N2CCOCC2)oc2c(-c3ccccc3)cccc12; observed: enzyme activity; mode: inhibitor; concentration: 0.5 µM; relative to: control
| target | remaining activity |
| --- | --- |
| G protein-coupled receptor kinase 4 (GRK4, Homo sapiens, UniProt P32298) | 96.5% |
| Calcium/calmodulin-dependent protein kinase type 1B (PNCK, Homo sapiens, UniProt Q6P2M8) | 98.4% |
| Misshapen-like kinase 1 (MINK1, Homo sapiens, UniProt Q8N4C8) | 94.6% |
| Ribosomal protein S6 kinase alpha-4 (RPS6KA4, Homo sapiens, UniProt O75676) | 111% |
| Mitogen-activated protein kinase 11 (MAPK11, Homo sapiens, UniProt Q15759) | 96.2% |
| Calcium/calmodulin-dependent protein kinase type IV (CAMK4, Homo sapiens, UniProt Q16566) | 104% |
| Discoidin domain-containing receptor 2 (DDR2, Homo sapiens, UniProt Q16832) | 91.3% |
| Serine/threonine-protein kinase tousled-like 2 (TLK2, Homo sapiens, UniProt Q86UE8) | 83.2% |
| Serine/threonine-protein kinase PAK 3 (PAK3, Homo sapiens, UniProt O75914) | 104% |
| Rho-associated protein kinase 1 (ROCK1, Homo sapiens, UniProt Q13464) | 104% |
| MAP/microtubule affinity-regulating kinase 4 (MARK4, Homo sapiens, UniProt Q96L34) | 91.4% |
| Dual specificity protein kinase CLK4 (CLK4, Homo sapiens, UniProt Q9HAZ1) | 89.1% |
| Cyclin-dependent kinase 9, with cyclin K (CDK9, Homo sapiens, UniProt P50750) | 95.9% |
| Serine/threonine-protein kinase DCLK2 (DCLK2, Homo sapiens, UniProt Q8N568) | 97.6% |

For quick reference, copied from above (series 4):
| target | remaining activity |
| --- | --- |
| Calcium/calmodulin-dependent protein kinase type 1B (PNCK, Homo sapiens, UniProt Q6P2M8) | 98.4% |
| Misshapen-like kinase 1 (MINK1, Homo sapiens, UniProt Q8N4C8) | 94.6% |
| Ribosomal protein S6 kinase alpha-4 (RPS6KA4, Homo sapiens, UniProt O75676) | 111% |
| Mitogen-activated protein kinase 11 (MAPK11, Homo sapiens, UniProt Q15759) | 96.2% |
| Calcium/calmodulin-dependent protein kinase type IV (CAMK4, Homo sapiens, UniProt Q16566) | 104% |
